# Assay results from different studies.
# Parts stem from different laboratories: compare values within a part only. Changes are numbered by the printed parent chain.

# Series 1
# Target: Histone acetyltransferase KAT6A, both winged helices, GST fusion (KAT6A, Homo sapiens, UniProt Q92794, residues 1-181)
# Technique: protein binding microarray
# Form: double-stranded DNA, one strand shown
# Sample: in vitro
# Concentration: not given
# Notes: 8-mer, flanks averaged, mean of 2 arrays, mostly near background
# Relative to: not given
# Direction: higher = stronger binding
# Target sequence (chain): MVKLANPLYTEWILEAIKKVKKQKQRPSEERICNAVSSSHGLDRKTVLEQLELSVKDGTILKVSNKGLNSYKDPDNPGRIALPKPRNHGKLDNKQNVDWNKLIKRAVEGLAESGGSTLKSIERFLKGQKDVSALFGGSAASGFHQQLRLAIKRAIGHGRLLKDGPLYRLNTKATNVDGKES
Sequence,E-score
CCTACCTA,-0.248
ATTCGAAA,-0.0468
CGCGTAAC,0.308
ACGATAAC,0.0103
ACTATACT,3.5e-05
ATGTCTAG,0.0883
AGGTTACC,0.047
GGATTATA,-0.0439
AGTCGAAG,-0.0901

# Series 2
# Target: CCND2, cyclin fold, Cln2 fusion (human)
# Technique: yeast growth competition, sequencing
# Sample: yeast
# Notes: weak parent motif
# Relative to: not given
# Direction: higher = stronger binding
# Starting sequence: CDKN1A docking peptide (human); SKACRRLFGPVDS; partner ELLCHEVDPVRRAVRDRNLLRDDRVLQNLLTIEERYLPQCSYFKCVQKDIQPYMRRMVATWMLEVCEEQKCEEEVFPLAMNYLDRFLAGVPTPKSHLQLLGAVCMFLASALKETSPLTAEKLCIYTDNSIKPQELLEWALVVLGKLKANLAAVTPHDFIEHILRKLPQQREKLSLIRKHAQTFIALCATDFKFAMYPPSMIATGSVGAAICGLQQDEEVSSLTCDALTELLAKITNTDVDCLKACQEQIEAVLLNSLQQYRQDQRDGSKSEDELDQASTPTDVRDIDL
Substitution,normalised enrichment score
V11A,0.428
R5V,0.14
L7T,0.293
C4Y,-0.513
K2L,-0.008
R6F,0.0868
F8D,0.346
F8S,0.31

# Series 3
# Target: RNA binding protein fox-1 homolog 2, RRM domain, GST-SBP tag (RBFOX2, Homo sapiens, UniProt O43251-10, residues 100-194)
# Technique: RNA Bind-n-Seq
# Form: RNA
# Sample: in vitro
# Concentration: 365 nM
# Notes: natural RNA segment, single round, ends assumed
# Relative to: no-protein control
# Direction: higher = stronger binding
# Shared flanks, not repeated: GGGAGUUCUACAGUCCGACGAUC … UGGAAUUCUCGGGUGCCAA
# Target sequence (chain): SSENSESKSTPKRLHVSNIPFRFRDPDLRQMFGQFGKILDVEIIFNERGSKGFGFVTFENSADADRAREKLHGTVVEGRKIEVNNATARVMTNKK
Sequence,RBNS enrichment (R)
UACUUUCCAGCAGUCAGUCCCUGGUUCCUAGAUGUGUUCUAAGCAAUGCAAAUGUCUAAUUGUCCCCCAGUGGGCAUAGUCAGUGUCGUUUAUAUUGUAGCAGUUACAGC,0.32
GAGACCUAGCCUAGUUUUCCUGCAGACAAUGAAUGAAGUGUGCUCAUUGAAAUAAAAUACAGAGUCAAAUCGCUAUUGUUGUUUUAAUGAUCUGUUUUUAGCUGGAUGGU,0.609
GAAAGGCUGUGUAGUAGAACCAGAGGCGCCUUCUUGCUCUUGUUUUAUGAUCAGGGUGGAAUGUGCCUCCUGAUGUAUGAGCCUCAUUAAUUUCCAUUUUAAGGUGGUGU,0.534
GCCUAAUAUUCAUCAGCCUUCAUUACUCUCUAGCAUAUUCACCUUGAUUCAACAGAUUCAAACUUCCUACAGCCUUCUACUGAUGUCUUACAAGCUCUUGCCUCUGUGCC,1.4
UCACCUGUUCUUACCCACGUCCCUCCUCAAUAAAGAAGCCAGUCAGGCGUGGUUAUAUGUUGCUACGUCUCCAGUGACUUUCUUCUCUUAAGACACAGUAGUGCUGAAUU,0.44
UAUUCAAGAAUGUAUUAAUAAGGCAUUGCCCCCUGUUUGCACUCAGGGUUAAUAUGUCAAAUGAAAUUUAAGAAGGAAAUGGAAGAAUUCAGGUACAUUAAUUGCAUAUU,4.75
CAGCUAUCCUCCAGGUGGCUAGGGACAGUCUAUUCUGCUGCAACUGGAAAGUAGAGGGAACCGGCACUGCUCAGAGCAGAUGGCGGCUUCUGGAGGCACACAGUGGGAGU,0.405
CCGUCAUGUGGAUGUUAUUGUCGCGCGCGUCUAUAAUUACAAGGUUUUAUUCCUAUUUAAUGUUAUUGACUAUAGCAGAUUUUGGAAAUCAGUGUUUUCCAUGUGACCCU,0.347

# Single results of other studies
Molecule,target,test,test system,conditions,how to read,endpoint,value
"PhoQ, residues 284 288 289 292 302 303 WVSSAF","PhoP, residues 12 14 15 18 19 SFCSL (Escherichia coli, UniProt P23836)","Sort-seq, refers to: YFP reporter",E. coli,"PhoQ-PhoP variant library, together with: 10 µM Mg2+","relative to: high Mg2+ state, higher = stronger signaling",fold induction,14.3

# For quick reference, copied from above (series 2):
Substitution,normalised enrichment score
L7T,0.293
C4Y,-0.513
K2L,-0.008
R6F,0.0868
